# Experimental data from different studies.
# Each line is one published result; not all experiments were run side by side. Numbers after ± are the reported error.
SMILES,assay,system,setting,Cmax
O=C(Cc1cccc(OC(F)(F)F)c1)Nc1ccc(CCCCc2nnc(NC(=O)Cc3ccccn3)s2)nn1,,"human patients, plasma","oral, 150 mg three times daily fasted, cycle 1 day 15 steady state",1440 ng/mL
COCCCCn1c(C(=O)N(CC(C)C)[C@@H]2CNC[C@H](C(=O)N3CCOCC3)C2)nc2ccccc21,,"human, elderly, plasma","oral, 80 mg once daily, day 7, mean",1070 ng/mL
C#C[C@]1(O)CC[C@H]2[C@@H]3CCC4=CC(=O)CC[C@@H]4[C@H]3CC[C@@]21CC,,"healthy female human, plasma","oral, 1 Portia tablet, added: no ritlecitinib",2.9 ng/mL
CCc1cc2c(cc1N1CCC(N3CCOCC3)CC1)C(C)(C)c1[nH]c3cc(C#N)ccc3c1C2=O,"LC-MS, noncompartmental","human patients under sample A years, plasma","oral, 300 mg/day, cycle 1 day 1, geometric mean",197 ng/mL
O=C(CCCCCCC(=O)Nc1ccccc1)NO,,"human, serum","oral, 400 mg three times daily, 3 days, added: idarubicin",1660 nM
CC(C)(Sc1ccncc1-c1ccc(C#N)c2ccccc12)C(=O)O,,"human, plasma","oral, 9 mg daily, day 7, geometric mean, added: febuxostat 80 mg",15.3 ng/mL
C#C[C@]1(CO)O[C@@H](n2cnc3c(N)nc(F)nc32)C[C@@H]1O,,"human, plasma","oral, 2.25 mg once daily, geometric mean, added: doravirine 100 mg once daily",68.3 nM
Cc1nc(-c2ccc(OCC(C)C)c(C#N)c2)sc1C(=O)O,,"human, plasma","oral, 40 mg, added: verinurad 5 mg",517 ng/mL
CC(C)(Sc1ccncc1-c1ccc(C#N)c2ccccc12)C(=O)O,,"human, male, Japanese, plasma","oral, 10 mg, day 6, fed, single dose",21.9 ng/mL
C#Cc1cccc(Nc2ncnc3cc(OCCOC)c(OCCO)cc23)c1,,"human, plasma","erlotinib, day 29, normalised to erlotinib 150 mg, added: dovitinib",56 ± 43 ng/mL
CNC(=O)c1ccc(-c2cnc3ncc(Cc4ccc5ncccc5c4)n3n2)cc1F,,"healthy human subjects, plasma","oral, 400 mg, adjusted geometric mean, alone",3070 ng/mL
Cc1ccc(NC(=O)c2ccc(CN3CCN(C)CC3)cc2)cc1Nc1nccc(-c2cncc(-c3oncc3C)c2)n1,,"older healthy human adults, plasma","oral, 175 mg single dose, fed, mean",6130 ng/mL
O=S(=O)(c1cccc2cnccc12)N1CCCNCC1,,"healthy human, plasma","oral, 30 mg",1.4 ng/mL
O=c1[nH]cc(F)c(=O)[nH]1,,"human, plasma","intravenous, 2400 mg/m^2 maintenance, cycle 1 without vorinostat, twice-daily cohort",11200 ± 5550 ng/mL
CC(C)NC[C@@H](C(=O)N1CCN(c2ncnc3c2[C@H](C)C[C@H]3O)CC1)c1ccc(Cl)cc1,,"human, hepatic impairment Moderate (Child-Pugh), plasma","oral, 100 mg single, geometric mean",89.1 ng/mL
CC(C)C[C@H](NC(=O)[C@H](CCc1ccccc1)NC(=O)CN1CCOCC1)C(=O)N[C@@H](Cc1ccccc1)C(=O)N[C@@H](CC(C)C)C(=O)[C@@]1(C)CO1,,"human patients, plasma","intravenous infusion 10 min, 20 mg/m^2, day 1 of cycle 1, KRd regimen",1540 ± 391 ng/mL
CNC(=O)c1ccc(-c2cnc3ncc(Cc4ccc5ncccc5c4)n3n2)cc1F,,human mild hepatic impairment,"oral, 200 mg single dose, adjusted geometric mean",1260 ng/mL
CCn1c(=O)c2c(nc(/C=C/c3ccc(O)c(OC)c3)n2C)n(CC)c1=O,,"healthy humans, plasma","oral, 40 mg, added: rifampin 600 mg/day",7.25 ng/mL
N[C@@H](Cc1ccc(O)c(O)c1)C(=O)O,,"human, plasma","oral, 150 mg single, geometric LS mean, added: 37.5 mg carbidopa",2440 ng/mL
Cn1ncc(Cl)c1-c1cc(C(=O)N[C@H](CN)Cc2ccc(F)c(F)c2)oc1Cl,,"human patients, plasma","oral, 150 mg once daily, day 15, repeat dose",901 to 932 ng/mL
CCOc1cc([C@@H](CS(C)(=O)=O)N2C(=O)c3cccc(NC(C)=O)c3C2=O)ccc1OC,,"healthy human, both sexes, plasma","oral, 30 mg single dose, added: rifampicin multiple oral doses",166 ng/mL
CC[C@H](C)[C@H](NC(=O)[C@H](CCC(=O)O)NC(=O)[C@H](CO)NC(=O)[C@@H](NC(=O)[C@@H](N)CO)C(C)C)C(=O)N[C@@H](CCC(N)=O)C(=O)N[C@@H](CC(C)C)C(=O)N[C@@H](CCSC)C(=O)N[C@@H](Cc1cnc[nH]1)C(=O)N[C@@H](CC(N)=O)C(=O)N[C@@H](CC(C)C)C(=O)NCC(=O)N[C@@H](CCCCN)C(=O)N[C@@H](Cc1cnc[nH]1)C(=O)N[C@@H](CC(C)C)C(=O)N[C@@H](CC(N)=O)C(=O)N[C@@H](CO)C(=O)N[C@@H](CCSC)C(=O)N[C@@H](CCC(=O)O)C(=O)N[C@@H](CCCN=C(N)N)C(=O)N[C@H](C(=O)N[C@@H](CCC(=O)O)C(=O)N[C@@H](Cc1c[nH]c2ccccc12)C(=O)N[C@@H](CC(C)C)C(=O)N[C@@H](CCCN=C(N)N)C(=O)N[C@@H](CCCCN)C(=O)N[C@@H](CCCCN)C(=O)N[C@@H](CC(C)C)C(=O)N[C@@H](CCC(N)=O)C(=O)N[C@@H](CC(=O)O)C(=O)N[C@H](C(=O)N[C@@H](Cc1cnc[nH]1)C(=O)N[C@@H](CC(N)=O)C(=O)N[C@@H](Cc1ccccc1)C(=O)O)C(C)C)C(C)C,immunoradiometric,"human, plasma","subcutaneous, 56.5 µg once weekly, day 1",0.461 ± 0.0933 ng/mL
N#Cc1ccnc(N2C(=O)CC[C@H]2C(=O)N(c2cncc(F)c2)[C@H](C(=O)NC2CC(F)(F)C2)c2ccccc2Cl)c1,,"human patients, plasma","oral, 500 mg once daily, induction cycle 1 day 1, mean, added: chemotherapy",5000 ng/mL
Cc1[nH]c(/C=C2\C(=O)Nc3ccccc32)c(C)c1CCC(=O)O,,human patients,"oral, 500 mg/m^2 twice daily, after meal, dose 55",9360 ± 5720 ng/mL
C[C@@H](Oc1cc(-c2cnn(C3CCNCC3)c2)cnc1N)c1c(Cl)ccc(F)c1Cl,,"healthy human, plasma","oral, 250 mg single fasted, arithmetic mean",124 ± 39.2 ng/mL
CC(C)(/C=C(\C#N)C(=O)N1CCC[C@@H](n2nc(-c3ccc(Oc4ccccc4)cc3F)c3c(N)ncnc32)C1)N1CCN(C2COC2)CC1,,human,"400 mg single dose, 2 h",101 ng/mL
COc1ccc2nc([S@@+]([O-])Cc3ncc(C)c(OC)c3C)[nH]c2c1,,"human, CYP2C19 ultrarapid metabolizers, plasma","oral, 40 mg/day, day 5",4090 ± 7090 ng/mL
COc1cc(Nc2ncc3c(n2)-c2ccc(Cl)cc2C(c2c(F)cccc2OC)=NC3)ccc1C(=O)O,,"human, plasma","oral, 40 mg twice daily, day 7, steady state geometric mean",1830 nM
CC[C@H](C)[C@H](NC(=O)[C@H](CC(C)C)NC(=O)[C@H](Cc1c[nH]c2ccccc12)NC(=O)[C@H](C)NC(=O)[C@@H](NC(=O)[C@H](Cc1ccccc1)NC(=O)[C@H](CC(=O)O)NC(=O)[C@H](CCCNC(=N)N)NC(=O)[C@H](C)NC(=O)[C@H](C)NC(=O)[C@H](CC(C)C)NC(=O)[C@H](C)NC(=O)[C@H](CC(=O)O)NC(=O)[C@H](CC(C)C)NC(=O)[C@@H](NC(=O)[C@@H](NC(=O)[C@H](C)NC(=O)[C@H](CC(C)C)NC(=O)[C@H](CCC(=O)O)NC(=O)[C@H](CO)NC(=O)[C@H](CO)NC(=O)[C@H](Cc1ccccc1)NC(=O)[C@@H](NC(=O)CNC(=O)[C@H](CCC(=O)O)NC(=O)CNC(=O)[C@@H](N)Cc1cnc[nH]1)[C@@H](C)O)[C@@H](C)O)[C@@H](C)CC)[C@@H](C)CC)C(=O)N[C@@H](C)C(=O)N[C@H](C(=O)N[C@@H](CCCCN)C(=O)N[C@H](C(=O)N[C@H](C(=O)N[C@@H](CC(=O)O)C(=O)N[C@@H](CCCCN)C(=O)N[C@@H](CCCCN)C(=O)N[C@@H](CCCCN)C(=O)N[C@@H](CCCCN)C(=O)N[C@@H](CCCCN)C(=O)N[C@@H](CCCCN)C(N)=O)[C@@H](C)O)[C@@H](C)CC)[C@@H](C)O,immunoaffinity LC-MS/MS,"healthy human subjects, plasma","subcutaneous, 10 mg once weekly, day 36 after 6 doses, steady state, geometric mean",0.432 nM
C=C[C@@H]1C[C@]1(NC(=O)[C@@H]1C[C@@H]2CN1C(=O)[C@H](C(C)(C)C)NC(=O)O[C@@H]1C[C@H]1CCCCCc1nc3ccc(OC)cc3nc1O2)C(=O)NS(=O)(=O)C1CC1,,"healthy adult humans, plasma","oral, 100 mg, fixed-dose combination with elbasvir 50 mg, fasted",39.4 nM
CON(C)C(=O)N1N=C(c2cc(F)ccc2F)S[C@@]1(CCCN)c1ccccc1,,"human patients, plasma","intravenous, 1.8 mg/m2, cycle 1 day 3",47.1 ng/mL
CCCCC1(CCCC)CN(c2ccccc2)c2cc(SC)c(OCC(=O)N[C@@H](C(=O)NCC(=O)O)c3ccccc3)cc2S(=O)(=O)C1,LC-MS/MS,"human, plasma","oral, 15 mg, single dose, before breakfast",0.377 ng/mL
NS(=O)(=O)OC[C@@H]1C[C@@H](n2ccc3c(N[C@H]4CCc5ccccc54)ncnc32)C[C@@H]1O,,human,"intravenous, 8 mg/m^2 single dose, day 1",59.1 ng/mL
CNc1nc(Nc2ccc(-n3cnc(C)n3)c(OC)c2)nc2c1CC[C@H]2c1ccc(F)cc1,,"healthy humans, both sexes, plasma","oral, 900 mg single dose",748 ng/mL
CC(=O)c1c(C)c2cnc(Nc3ccc(N4CCNCC4)cn3)nc2n(C2CCCC2)c1=O,,"human patients, plasma","oral, 50 mg/m^2 repeated doses, day 21",90 ± 62 ng/mL
CC(=O)c1c(C)c2cnc(Nc3ccc(N4CCNCC4)cn3)nc2n(C2CCCC2)c1=O,,"human patients, plasma","oral, 125 mg once daily, steady state, free base with meal, geometric mean, added: inavolisib + letrozole",90.7 ng/mL
C=C(C)[C@@H]1CC[C@]2(NCCN3CCS(=O)(=O)CC3)CC[C@]3(C)[C@H](CC[C@@H]4[C@@]5(C)CC=C(C6=CC[C@@](CF)(C(=O)O)CC6)C(C)(C)[C@@H]5CC[C@]43C)[C@@H]12,,"human, HIV-1 treatment-naive, plasma","oral, 10 mg once daily, day 8",60 ng/mL
CCn1c(C(=O)c2cc(C)cc(C#N)c2)c(C(C)C)c(=O)[nH]c1=O,,"healthy humans, plasma","oral, 75 to 600 mg single dose, range of dose-group means",440 to 1250 ng/mL
CO[C@H]1C[C@@H]2CC[C@@H](C)[C@@](O)(O2)C(=O)C(=O)N2CCCC[C@H]2C(=O)O[C@H]([C@H](C)C[C@@H]2CC[C@@H](OC(=O)C(C)(CO)CO)[C@H](OC)C2)CC(=O)[C@H](C)/C=C(\C)[C@@H](O)[C@@H](OC)C(=O)[C@H](C)C[C@H](C)/C=C/C=C/C=C/1C,,"human, whole blood","intravenous, 60 mg/m^2 weekly, cycle 1, median, added: valproic acid",1220 ng/mL
Cc1[nH]c2ccccc2c1CCNCc1ccc(/C=C/C(=O)NO)cc1,,human,"20 mg, day 8, added: IM 400 mg",16.6 ng/mL
COc1ccc(-n2nc(C(N)=O)c3c2C(=O)N(c2ccc(N4CCCCC4=O)cc2)CC3)cc1,,"healthy human subjects, plasma","oral, 2.5 mg twice daily, day 4, steady state, geometric mean, added: rivaroxaban 10 mg once daily",81 ng/mL
CC(C)c1nc(CN(C)C(=O)N[C@H](C(=O)N[C@@H](Cc2ccccc2)C[C@H](O)[C@H](Cc2ccccc2)NC(=O)OCc2cncs2)C(C)C)cs1,,"HIV/HCV coinfected humans, plasma","oral, dose not given, steady-state median, added: lopinavir/ritonavir twice daily",1100 ng/mL
O=C(CCCCCCC(=O)Nc1ccccc1)NO,,"human, serum","oral, 300 mg, mean",661 nM
CC(=O)O[C@H]1C(=O)[C@@]2(C)[C@H]([C@H](OC(=O)c3ccccc3)[C@]3(O)C[C@H](OC(=O)[C@H](O)[C@@H](NC(=O)c4ccccc4)c4ccccc4)C(C)=C1C3(C)C)[C@]1(OC(C)=O)CO[C@@H]1C[C@@H]2O,,"human patients on any protease inhibitor, plasma","iv, 100 mg/m^2 over 3 h, cycle 1",1470 ± 680 nM
C=C(C)[C@@H]1CC[C@]2(NCCN3CCS(=O)(=O)CC3)CC[C@]3(C)[C@H](CC[C@@H]4[C@@]5(C)CC=C(C6=CC[C@@](CF)(C(=O)O)CC6)C(C)(C)[C@@H]5CC[C@]43C)[C@@H]12,,"healthy human volunteers, plasma","oral, 200 mg, tablet, moderate-fat state, geometric mean",1430 ng/mL
COc1ccnc(C[S+]([O-])c2nc3ccc(OC(F)F)cc3[nH]2)c1OC (centres unmarked),,"human, CYP2C19 poor metabolizers, plasma","oral, 40 mg/day, day 5",12000 ± 1800 ng/mL
O=C(CCCCCCC(=O)Nc1ccccc1)NO,,"human, cycle 1 day 12, steady state, plasma","oral, 400 mg, added: bortezomib",323 ± 307 ng/mL
C=C(C)[C@@H]1CC[C@]2(NCCN3CCS(=O)(=O)CC3)CC[C@]3(C)[C@H](CC[C@@H]4[C@@]5(C)CC=C(C6=CC[C@@](CF)(C(=O)O)CC6)C(C)(C)[C@@H]5CC[C@]43C)[C@@H]12,,"human, plasma","oral, 200 mg multiple doses, day 1",614 ng/mL
C=CC(=O)N1CCC([C@@H]2CCNc3c(C(N)=O)c(-c4ccc(Oc5ccccc5)cc4)nn32)CC1,,human,"oral, 160 mg, single dose, mean",216 ng/mL
CO[C@H]1C[C@@H]2CC[C@@H](C)[C@@](O)(O2)C(=O)C(=O)N2CCCC[C@H]2C(=O)O[C@H]([C@H](C)C[C@@H]2CC[C@@H](O)[C@H](OC)C2)CC(=O)[C@H](C)/C=C(\C)[C@@H](O)[C@@H](OC)C(=O)[C@H](C)C[C@H](C)/C=C/C=C/C=C/1C,,"healthy human subjects, whole blood","oral, 2 mg single dose, arithmetic mean, added: isavuconazole 200 mg once daily after loading",8.5 ng/mL
C#Cc1cccc(Nc2ncnc3cc(OCCOC)c(OCCOC)cc23)c1,,"human, plasma","oral, 75 mg once daily, steady state, geometric mean, added: ritonavir 200 mg once daily",1680 ng/mL
C#C[C@]1(CO)O[C@@H](n2cnc3c(N)nc(F)nc32)C[C@@H]1O,,"human, plasma","oral, 10 mg once weekly, week 1",193 nM
O=c1[nH]c(=O)c(Cc2cccc(C(F)(F)F)c2)c([C@H]2CC[C@H](c3ccccc3)CC2)[nH]1,,"human, plasma","oral, 450 mg once daily, day 14, geometric mean",469 ng/mL
